Experimental data pooled from the literature.
Numbered parts are unrelated; each lists some results of a single study. Changes are numbered by the printed parent chain.

Set 1
Target: ABI1, truncated, D143A, DHFR fusion (Arabidopsis thaliana)
Method: DHFR PCA, deep sequencing
Medium: yeast
Notes: methotrexate growth selection, single substitutions
Added: (+)-ABA 2500 µM
Relative to: wild-type fitted maximum
Reading: higher = stronger binding
Measurement: relative binding score
Starting sequence: PYL1, truncated, DHFR fusion (Arabidopsis thaliana); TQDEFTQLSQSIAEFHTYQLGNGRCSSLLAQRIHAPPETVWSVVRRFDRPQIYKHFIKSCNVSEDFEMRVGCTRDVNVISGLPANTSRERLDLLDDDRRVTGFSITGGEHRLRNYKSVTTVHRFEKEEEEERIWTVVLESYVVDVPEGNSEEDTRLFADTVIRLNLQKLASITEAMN
S27N: 104%
I57E: 18.8%
T6G: 107%
F103P: 1.39%
S104D: 57.5%
D95H: 88.2%
A158S: 92.9%
N114W: 65.3%
Q7A: 105%
D75V: 96.9%
F5E: 103%
V143L: 86.8%
H110A: 68.9%
L112E: 1.56%

Set 2
Target: CCND2, cyclin fold, Cln2 fusion (human)
Method: yeast growth competition, sequencing
Medium: yeast
Notes: weak parent motif
Relative to: not given
Reading: higher = stronger binding
Measurement: normalised enrichment score
Starting sequence: GMNC docking peptide (human); KNAKRNLSSEFAN
A12Y: 0.233
N6W: -0.315
N6D: -0.231
K4T: 0.142
S8L: 0.422
N6S: 0.227
N6T: 0.657
K4F: 0.131
E10M: -0.0383
K4M: 0.0281
R5V: -0.129
R5E: 0.251
S9F: 0.397
A3L: -0.0738
F11Y: 0.182
A12F: -0.0338
S9M: 0.246
S9W: 0.229

Set 3
Target: Histone acetyltransferase KAT6A, winged helix 1, GST fusion (KAT6A, Homo sapiens, UniProt Q92794, residues 1-85)
Method: protein binding microarray
Form: double-stranded DNA, one strand shown
Medium: in vitro
Tested at: not given
Notes: 8-mer, flanks averaged, mean of 2 arrays, mostly near background
Relative to: not given
Reading: higher = stronger binding
Measurement: E-score
Residues (chain): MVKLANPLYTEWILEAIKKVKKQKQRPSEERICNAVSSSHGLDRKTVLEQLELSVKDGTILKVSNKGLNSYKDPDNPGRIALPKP
AGGGTGAG: -0.0861
ACAGTTCT: 0.0129
AGCGGCAA: 0.344
GCTCGCAA: -0.116
TGGATGAA: -0.143
TCTTCTAA: -0.165
CATACGTA: 0.15
ACGCTCAG: 0.0936
CTGAGAAC: -0.107
AGTTCTGA: -0.216
AACCGTCT: 0.0084
CCCATATC: -0.182
ACATCGAC: -0.00751
CAATTCCA: -0.235
GTGATTGA: 0.00884
AGACCCAC: -0.136
CAAATGGG: -0.257
AGCATCAG: -0.0949
GTGGCGCA: 0.154
AGGCAAAG: -0.168

Set 4
Target: Sal-like protein 4, full length isoform B (SALL4, Homo sapiens, UniProt Q9UJQ4-2, residues 1-616)
Method: universal PBM
Form: double-stranded DNA, one strand shown
Medium: in vitro
Tested at: not given
Notes: 8-mer, flanks averaged, mean of replicates
Reading: higher = stronger binding
Measurement: E-score
Construct (chain): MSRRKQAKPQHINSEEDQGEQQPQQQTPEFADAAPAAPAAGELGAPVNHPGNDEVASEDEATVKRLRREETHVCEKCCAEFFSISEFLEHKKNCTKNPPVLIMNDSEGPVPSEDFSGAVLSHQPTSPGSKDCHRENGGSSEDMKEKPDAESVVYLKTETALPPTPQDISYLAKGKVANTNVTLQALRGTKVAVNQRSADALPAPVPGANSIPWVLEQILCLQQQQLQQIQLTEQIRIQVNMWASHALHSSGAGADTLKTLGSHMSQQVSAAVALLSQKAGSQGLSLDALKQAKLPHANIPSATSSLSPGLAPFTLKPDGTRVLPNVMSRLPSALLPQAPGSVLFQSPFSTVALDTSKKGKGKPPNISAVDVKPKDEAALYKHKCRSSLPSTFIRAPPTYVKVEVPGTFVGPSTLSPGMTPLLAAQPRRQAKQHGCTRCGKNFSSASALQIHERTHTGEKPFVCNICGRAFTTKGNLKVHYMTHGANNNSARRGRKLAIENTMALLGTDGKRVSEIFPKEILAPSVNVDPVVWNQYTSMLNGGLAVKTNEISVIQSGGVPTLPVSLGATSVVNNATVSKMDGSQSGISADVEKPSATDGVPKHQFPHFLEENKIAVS
AGGAATAT: 0.269
GCGTAAGC: -0.183
AGAGTGGG: -0.13
ACCTAATC: 0.164
CTCCTGAC: -0.17
AGACAGTC: -0.257
CGTCAATA: 0.187
CGTGAAAA: 0.102
CTTAGCCC: -0.262
AAGAATTA: 0.313
ACATATCG: 0.0787
TAGGTAAA: 0.203
ACCAGAAA: 0.166
CATTCCGC: -0.238
ATGGGGCA: -0.178
ACATCTCG: 0.0746
CTCGTTAA: 0.0729

Set 5
Target: Interferon regulatory factor 5, full length, phosphomimetic (IRF5, Homo sapiens, UniProt Q13568-2, residues 1-514, K96S/S451D/S453D/S456D/S462D)
Method: protein-binding microarray
Form: double-stranded DNA, one strand shown
Medium: in vitro
Tested at: 250 nM
Notes: 60-bp whole probe
Added: salmon DNA 0.4 mg/ml
Relative to: random background probes
Reading: higher = stronger binding
Measurement: log fluorescence
All sequences stand within: GCCTAGCAC … GTCTTGATTCGCTTGACGCTGCTG
GCTCATCTGTCATGTTTGTCAGTGCTA: 0.326 z-score
GACGATCTCAGTCTGGAGACGTGCTAG: -0.208 z-score
CTTGGTAAATTTAGCCGACGGTGCTAG: -0.351 z-score
GACGAACTGGGGTATGGAGACGTGCTA: -0.414 z-score
GACGGACTGGACACTGGGCACGTGCTA: -0.561 z-score
TTACGTTTCGACACTGGGTTAGTGCTA: 6.24 z-score
TTAGGACTGGACTTTCGTTTAGTGCTA: 5.92 z-score
TTAGGACTGGACACTGGGTTTGTGCTA: -0.3 z-score
TCAGATCACCGATTTCCTACTGTGCTA: 0.23 z-score
TCATATAGGTTGTTTCTAACTGTGCTA: 0.776 z-score
TATTGTCTCCCCCATCTTGTTGTGCTA: 0.363 z-score
TTAGATTCCAGTTTCGCTTAGTGCTAG: 7.21 z-score
TTAGGAATCGGGTTTCGGTTAGTGCTA: 8.12 z-score
GACGGTATCCTACGGCTGACGTGCTAG: -0.177 z-score
TTGGTTCTGATCCTTCCCCTCGTGCTA: -0.0415 z-score
TTAGATCTCAGTTTCGATTGGTGCTAG: 9.12 z-score
TTAGGTATCGCTCTCGGTTAGTGCTAG: 3 z-score
GACGATATCGACACTGGGGACGTGCTA: 1.23 z-score
GCACTCTTCTTTTTTTTCTTGTGCTAG: 0.869 z-score
GACGATATCGGCACTGGAGACGTGCTA: 0.919 z-score

Set 6
Target: RNA binding protein fox-1 homolog 2, RRM domain, GST-SBP tag (RBFOX2, Homo sapiens, UniProt O43251-10, residues 100-194)
Method: RNA Bind-n-Seq
Form: RNA
Medium: in vitro
Tested at: 365 nM
Notes: natural RNA segment, single round, ends assumed
Relative to: no-protein control
Reading: higher = stronger binding
Measurement: RBNS enrichment (R)
All sequences stand within: GGGAGUUCUACAGUCCGACGAUC … UGGAAUUCUCGGGUGCCAA
Target sequence (chain): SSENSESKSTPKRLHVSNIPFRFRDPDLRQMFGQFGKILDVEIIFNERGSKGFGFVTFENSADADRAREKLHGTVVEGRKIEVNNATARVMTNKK
AAAGUUGGCUGGACUGUUAUACUAUGAAUAUACUACGAAUUUGUAAACUAUCAUUAUAAAUUGAAGUGUAUAUGCUCAGUAUAUUGGCAUAUAUGUGUAAUUCCAGCACU: 0.28
GUGUGUGUAAAAUAUUUCCUAGGAAUAAAUUAGGCACUUUUUAGAAGCAAUGUUAAAUCAUUCAGGUUUUAUUUUCUGCCCUGAAGCAGAAAUUUAAAAAAUGAUAUUGG: 0.368
GCAAGUGCCCUUAGGAUGCCGCAUGGGAAAAAUCGGUUAUCAUAAUUUCAAAGUAUAAAUAUAUUUAUUAAGUAGCGCUGCGGCUAAGAAGGAAGAGUGAGGGGUCUGUC: 5.1
UCCCCGUGAAGGAGAGCCCUUCAUUUGGAGAUUAUGUUCUUUCGGGGAGAGGCUGAGGACUUAAAAUAUUCCUGCAUUUGUGAAAUGAUGGUGAAAGCACUGCUGCCCAG: 0.348
CUGAGAGUGGACAGAGGAGAGGAGAGGGUCAGAAAUGAACGCUCUUCUAUUUCUUGUCAUUACCAAGCCAAUUACUUUUGCCAAAUUUUUCUGUGAUCUGCCCUGAUUAA: 0.242
CUUGCUUCCUAGUGCACUCGUUCAAUUGGAUUGGGGAGGAGACUGACUGUACUCACGGCUAACUUGAAGUAUUAAAAUGAGGCUGUACUCUACACACUUCCUAGUCACGC: 0.308
GUCUAAAGCAAUGAGGAGUUAUCACCUCAUCCUCAAACUCCAACAAGAUCUAUGCCUUAGUGUUGUUUUUGUUGUCUGCUUUGAUGUAAAAGCAAGAGUAUUUGGAGCAA: 0.292
GCAGAGGGAUACUUGAGUAAGGUUGGGUGGUUAAACCCCAAGCAUCCUACUGGAGUGUCUGUCCAGGGAGAAGCCAAGGGGAGCAUCAGAAGGAGCCACUGGAGCCAGAG: 0.959
CCGCCGUUGAGGGCUGAGUCCUUGCUGUGGGAUGUGCCAGUGUCCCCACCAACACCAGGAAUUUAGACCUUUUCCCUGCACCACUCUCUUCAUCCUGGGGGCUCUGUUAC: 0.453
GCUUCUAUGUAGUCCUACCACCUGCACAGAGGGGCUGGCAGGGCAGAAGUGUGACCUCAGUUAUAUAUACAUCCCAGCUCUGCCCAGUAUCCCUCACUUACCAAGAGGAG: 0.309
UGUACUGGGUGAUGCACCCAUUGUGAUUGUGGAAGAUAGAAUUCAAUUUGAACUCAGGUUGUUUAUGAGGGGAAAAAAACAGUUGCAUAGAGUAUAGCUCUGUAGUGGAA: 1.77
UUGUAAAUAAAAUCUUAACAUUUUGGGUCUGUUUUUUCAUGCUUUGCUUUUUAAUUAUUAUUAUUAUUUUUUUUACAUUAGGACAUUUUAUGUGACAACUGCCAAAAAAG: 1.16

Set 7
Target: Max-binding protein MNT, bHLH-zipper, MAX partner unstated (MNT, Homo sapiens, UniProt Q99583, residues 220-300)
Method: protein-binding microarray
Form: double-stranded DNA, one strand shown
Medium: in vitro
Tested at: not given
Notes: k-mer, scored over probes, only values ≥0.25
Reading: higher = stronger binding
Measurement: E-score
Residues (chain): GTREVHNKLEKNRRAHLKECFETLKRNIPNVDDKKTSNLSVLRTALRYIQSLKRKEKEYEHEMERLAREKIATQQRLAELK
ATCATGTG: 0.443
ACGCGTCA: 0.285
ATTACACG: 0.304
ACGCACCC: 0.279
AGCACGCT: 0.411
CCCCACGC: 0.412
CGCGGGTA: 0.284
CACCATGG: 0.291
ACGTGATA: 0.445
GTGCCGCA: 0.267
CGTGCCAC: 0.39
CGTGATAC: 0.291
AGTGCACA: 0.273
ACAACGTG: 0.462
GGTGGCGA: 0.294
CCACCTGA: 0.299
CATGGTCC: 0.31
GAACATGC: 0.342

Some of these lines once more (set 7):
CGTGATAC: 0.291
GAACATGC: 0.342
AGCACGCT: 0.411
CGCGGGTA: 0.284
ATTACACG: 0.304
AGTGCACA: 0.273
CCACCTGA: 0.299
ATCATGTG: 0.443
ACGTGATA: 0.445
CGTGCCAC: 0.39
ACGCACCC: 0.279
ACGCGTCA: 0.285
CCCCACGC: 0.412
CACCATGG: 0.291
GTGCCGCA: 0.267
CATGGTCC: 0.31
